Measurements collected from several papers.
A part holds a random share of what one study measured. Positions count from the first letter of the parent shown.

Set 1
Target: RING finger protein unkempt homolog, zinc fingers 1-6, GST-SBP tag (UNK, Homo sapiens, UniProt Q9C0B0, residues 30-357)
Method: RNA Bind-n-Seq
Form: RNA
Sample: in vitro
Concentration: not given
Notes: RNA with constant flanks, human and mouse sites, ends assumed
Baseline: input RNA pool
Reading: higher = stronger binding
Shared flanks, not repeated: GGGAGUUCUACAGUCCGACGAUC … CAACAGAGGAUUGAGCAUCA
Residues (chain): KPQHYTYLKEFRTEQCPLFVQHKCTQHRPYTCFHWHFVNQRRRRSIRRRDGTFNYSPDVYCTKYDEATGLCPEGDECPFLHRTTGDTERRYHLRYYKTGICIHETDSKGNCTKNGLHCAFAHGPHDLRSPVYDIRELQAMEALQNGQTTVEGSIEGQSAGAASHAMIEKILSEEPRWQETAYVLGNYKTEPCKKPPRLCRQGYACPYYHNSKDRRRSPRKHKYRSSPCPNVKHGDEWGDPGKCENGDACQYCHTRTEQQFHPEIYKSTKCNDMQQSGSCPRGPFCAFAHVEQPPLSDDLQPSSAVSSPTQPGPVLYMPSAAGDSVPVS
Sequence | bound/input enrichment
UCACACCUUCUUAUAAAGUGUGAACAAGGAAGGUCAUGUUUUUGUGGGUAUUUUGUCAGACUUAGAGGUUUCAUUUCAGGGCAUAGUCAAAGGCAUCAUCCUCCCAACUACCCACUUGAU | 0.334 ratio
CAGCGGCAGUUCAUUACAGCAAAUGGCCCUGAGGUGCUGGAGUCUCAAAUUCAAGCAAUCUGAUCACCAGUUCCUUCAUCAGAGCAACGUCUUUCAUCACAUUAACAAUAUUUUGUCAAA | 0.21 ratio
AGAUCCUUCACGUGCCCCUCCUGCAUGGAGCCAGUGGAUGCAGCACUGCUUUCAUCCUAUGAGACUAAUUGAGCCAGGGUCUCUCGUCUGACUUCAAGUGAACCAUCAGUUUUGGUGGUU | 0.096 ratio
UCUCUCGAGUUGAAGAAGACUAUCUCUGGAGGAUAAAACAACUAGGAUCCCACUCUCCAGUAGCACUUUUGAAUACCCUAUUCUACUUUAACACUAAGUAUUUUGGCCUGAAAACAGUGG | 1.04 ratio
GAUUACACGUGGAACUUACUGAAAGCAGGGAAAAUUCCAGAGGAAUUUAAUGUAUUUAAUUUAAUACAAGAAAUGAGAACACAGAGGCACUCGGCAGUACAAACAAAGGAGCAGUAUGAA | 0.413 ratio
GUUAAUCGUGAUUCAGAAAAUCUAGCUUCACCAUCUGAAUAUCCAGAAAAUGGAGAGAGAUUUAGUUUCCUAAGCAAACCUGUUGAUGAGAAUCACCAGCAGGAUGGAGAUGAAGAUUCC | 0.165 ratio
GGUGGGGUGGUCAUUGCCGUUUGAGCUGCUGAUUUUCAUGAGUCGCCUUCAAAACUCUCGUGUAGGGUUGACAAUGUGGGGGGGUGGGGGAUCCAGCUUAUUCUUUUAUUUUCAAGUCCA | 0.445 ratio
UUCUCAGAUCGUAUUUGUUUUAAGGCCACACCUUUUUGAAGUUUUCAGUUUGAAACACAACCUGGACUGAAAUCAUGAGGGAGGUUGUGUAGGAAAGAAUCAUCAAGGGACUUAGUUGGG | 0.197 ratio
UCCCGUUUUGGGAAUGCUUUCCAUCUAUGUCGGGAAGUACUGCGUUUAACCAAGCUGGUUGUGGACAGCCAUGUGCAGUAUCGCUUGGGCAAUGUAGAUGCCUUCCAGCUGGCAGAUGGU | 0.105 ratio
CCAACAGGGGAAGCAGCAGCCAAUACCCAGCAGACACUUACUUUCUAUGAACUGGACCUUGGCUUAAAUCAUGUGGUUCGGAAAUACAGUGAACCCUUGGAGGAACAUGGCAACUUCCUU | 0.196 ratio
UCAGCGCCACCGCUCGACUCUGAAGCGAAAUCUCAGCUAUCAAGGAGACUUUUAAAAGGCUCUCUAAAUAUUUGGUACGAGAAUUUCUUCUCUUUAUAUCUUUUGUGAUCCCUCUACACA | 0.341 ratio

Set 2
Target: CCND3, cyclin fold, Cln2 fusion (human)
Method: yeast growth competition, sequencing
Sample: yeast
Notes: weak parent motif
Baseline: not given
Reading: higher = stronger binding
Parent: AKAP12 docking peptide (human); GSPLKKLFTSTGL
Change | normalised enrichment score
GSPLKKLFTSAGL [T11A] | 0.00638
GSPLKKLFTATGL [S10A] | 0.167
GSPLRKLFTSTGL [K5R] | 0.0014
GSPLKALFTSTGL [K6A] | 0.189
GAPLKKLFTSTGL [S2A] | 0.143
GSPLAKAFTSTGL [K5A L7A] | -0.0567
GSPLKKLFTSTGA [L13A] | 0.0966
GSPLKKLLTSTGL [F8L] | -0.525
GSPLKKAFTSTGL [L7A] | 0.0609
GSALKKLFTSTGL [P3A] | 0.112

Set 3
Target: ABI1, truncated, D143A, DHFR fusion (Arabidopsis thaliana)
Method: DHFR PCA, deep sequencing
Sample: yeast
Notes: methotrexate growth selection, single substitutions
Added: (+)-ABA 0.39 µM
Baseline: wild-type fitted maximum
Reading: higher = stronger binding
Parent: PYL1, truncated, DHFR fusion (Arabidopsis thaliana); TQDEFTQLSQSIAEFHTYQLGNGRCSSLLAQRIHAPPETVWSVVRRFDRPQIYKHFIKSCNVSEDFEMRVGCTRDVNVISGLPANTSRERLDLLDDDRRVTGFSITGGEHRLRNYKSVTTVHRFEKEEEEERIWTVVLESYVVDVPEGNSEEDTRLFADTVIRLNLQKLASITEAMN; partner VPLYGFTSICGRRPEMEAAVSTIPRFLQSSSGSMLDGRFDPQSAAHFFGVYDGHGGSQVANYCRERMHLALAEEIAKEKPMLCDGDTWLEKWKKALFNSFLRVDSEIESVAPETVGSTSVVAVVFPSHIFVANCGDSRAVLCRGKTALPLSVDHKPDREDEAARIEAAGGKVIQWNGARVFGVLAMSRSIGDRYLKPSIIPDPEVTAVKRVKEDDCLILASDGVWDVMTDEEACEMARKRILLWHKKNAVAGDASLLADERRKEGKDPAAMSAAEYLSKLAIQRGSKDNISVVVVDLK
Change | relative binding score
T39K | 32.5%
T106D | 13.5%
C72A | 73.8%
E151G | 11.4%
S42L | 1.58%
F47C | -3.36%
L8I | -0.462%
R88S | 24.9%
S80V | 1.33%
R90W | -15.1%
D144Y | 4.68%
S140Q | 21.1%
N177R | 27.1%
G23F | 8.55%
Y141N | -12%
D144M | 1.69%
V40Y | -2.8%
L156C | 49.2%
T120D | -13.2%
I162W | 1.63%

Set 4
Target: PABPC1L2, full length, GST fusion (mouse, UniProt A0ABA7IW68)
Method: RNAcompete
Form: RNA
Sample: in vitro
Concentration: 20 nM
Notes: 7-mer, probes averaged, single round
Baseline: mean of 7-mers
Reading: higher = stronger binding
Construct (chain): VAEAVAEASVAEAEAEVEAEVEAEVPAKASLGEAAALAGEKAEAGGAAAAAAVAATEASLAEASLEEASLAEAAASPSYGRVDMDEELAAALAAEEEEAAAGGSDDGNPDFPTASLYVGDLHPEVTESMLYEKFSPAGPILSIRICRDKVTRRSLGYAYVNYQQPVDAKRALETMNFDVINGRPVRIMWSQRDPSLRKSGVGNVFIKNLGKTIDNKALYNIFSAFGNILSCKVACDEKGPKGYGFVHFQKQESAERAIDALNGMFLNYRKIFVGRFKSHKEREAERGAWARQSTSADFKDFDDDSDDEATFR
Sequence | 7-mer Z-score
AUACACU | -0.115
GUGACAG | 0.135
AGAAAAG | 2.88
AUGUCCA | -0.151
AUUUCUU | -0.258
UAACCAC | -0.11
AAGUAUA | 0.129
GUCUGUU | -0.483
GGUCUAA | 0.0261
UAGUUGG | -0.0428
AACUGAU | 0.211
AGUCAAC | -0.217
GGCAGGC | 0.303
UCCACAC | -0.244
UCGUCAC | -0.421
AGUCAAG | -0.0736
UUAAGGG | 0.216
UGUGAUU | -0.284
CACCAAC | -0.128
GGGGUGA | 0.303
GUUCAUC | -0.469
GGUUGCU | -0.0699
GGCACCA | 0.124
GGAAGCC | -0.104
CCUGUUU | -0.561

Set 5
Target: Sal-like protein 4, full length isoform A (SALL4, Homo sapiens, UniProt Q9UJQ4, residues 1-1053)
Chain of UniProt Q9UJQ4 (whole entry, looked up): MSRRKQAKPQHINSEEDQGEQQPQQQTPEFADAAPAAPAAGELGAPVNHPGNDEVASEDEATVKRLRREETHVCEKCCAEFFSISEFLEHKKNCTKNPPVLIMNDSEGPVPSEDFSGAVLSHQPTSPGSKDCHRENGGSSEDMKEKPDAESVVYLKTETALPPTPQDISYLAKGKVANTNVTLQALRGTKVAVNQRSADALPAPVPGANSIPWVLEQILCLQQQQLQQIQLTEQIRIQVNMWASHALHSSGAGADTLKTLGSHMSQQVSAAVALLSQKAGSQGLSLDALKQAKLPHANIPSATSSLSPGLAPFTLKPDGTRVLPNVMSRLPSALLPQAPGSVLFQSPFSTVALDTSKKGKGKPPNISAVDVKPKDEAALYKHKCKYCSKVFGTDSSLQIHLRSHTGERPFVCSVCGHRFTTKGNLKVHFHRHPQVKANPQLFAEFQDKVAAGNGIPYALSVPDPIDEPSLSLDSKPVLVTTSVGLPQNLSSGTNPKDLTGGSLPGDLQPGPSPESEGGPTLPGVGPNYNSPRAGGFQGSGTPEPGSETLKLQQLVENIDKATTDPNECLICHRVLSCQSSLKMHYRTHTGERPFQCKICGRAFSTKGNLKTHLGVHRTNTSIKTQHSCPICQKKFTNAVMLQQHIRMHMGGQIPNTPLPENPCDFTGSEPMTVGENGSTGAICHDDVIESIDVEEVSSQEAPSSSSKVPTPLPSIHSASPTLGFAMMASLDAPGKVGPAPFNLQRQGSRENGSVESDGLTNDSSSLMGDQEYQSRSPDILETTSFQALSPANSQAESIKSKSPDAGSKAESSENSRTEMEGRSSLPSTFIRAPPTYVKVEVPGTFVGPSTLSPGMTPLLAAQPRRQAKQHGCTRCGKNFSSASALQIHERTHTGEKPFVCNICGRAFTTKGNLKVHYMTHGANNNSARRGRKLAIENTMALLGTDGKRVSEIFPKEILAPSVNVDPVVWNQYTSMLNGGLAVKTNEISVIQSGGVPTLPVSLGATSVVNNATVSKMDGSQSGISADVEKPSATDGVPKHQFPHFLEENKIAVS
Method: universal PBM
Form: double-stranded DNA, one strand shown
Sample: in vitro
Concentration: 600 nM
Notes: 8-mer, flanks averaged, mean of replicates
Reading: higher = stronger binding
Sequence | E-score
CGTGGGGA | -0.173
ACCTTGAT | 0.0563
CGCCGAAA | -0.0894
ACACCGGC | -0.321
AGATTGAG | 0.167
AATTACAT | 0.286
AGACATCG | -0.155
ACTAACGC | -0.00639
GTTATAAC | 0.248
GGTTCGAA | -0.0329
ACATGCAT | 0.119
GCAGTGAC | -0.221
AATACCTC | 0.21
AACCGAAG | 0.0494
AAGGTTGC | -0.139
GAGTCACC | -0.306
AGCACTCC | -0.0925
CGTAGCTA | -0.0687
AGATGGAC | -0.0796
GTCGCGTA | -0.0717
GACGTTAA | 0.182
CACCACTC | -0.121
CGATTATA | 0.328
ATGAGAAC | 0.179
AGACTCCA | -0.0806

Set 6
Target: Interferon regulatory factor 7, full length, phosphomimetic (IRF7, Homo sapiens, UniProt Q92985, residues 1-503, S101K/S471D/S472D/S475D/S476D/S477D/S483D/S484D/S487D)
Chain of UniProt Q92985 (whole entry, unmodified, looked up): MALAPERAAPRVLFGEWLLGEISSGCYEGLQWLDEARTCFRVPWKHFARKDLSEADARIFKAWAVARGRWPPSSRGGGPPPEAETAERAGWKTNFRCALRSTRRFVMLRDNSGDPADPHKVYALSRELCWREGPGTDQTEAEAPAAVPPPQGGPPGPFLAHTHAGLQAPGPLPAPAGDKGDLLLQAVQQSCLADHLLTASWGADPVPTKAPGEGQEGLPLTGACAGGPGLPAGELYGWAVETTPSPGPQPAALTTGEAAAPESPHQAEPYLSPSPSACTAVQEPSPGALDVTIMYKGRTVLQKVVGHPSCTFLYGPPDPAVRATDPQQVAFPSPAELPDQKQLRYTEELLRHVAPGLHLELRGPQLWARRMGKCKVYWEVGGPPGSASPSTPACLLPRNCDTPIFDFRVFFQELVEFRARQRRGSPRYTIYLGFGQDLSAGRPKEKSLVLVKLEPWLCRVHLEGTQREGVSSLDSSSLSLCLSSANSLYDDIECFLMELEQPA
Method: protein-binding microarray
Form: double-stranded DNA, one strand shown
Sample: in vitro
Concentration: 250 nM
Notes: 60-bp whole probe
Added: salmon DNA 0.4 mg/ml
Baseline: random background probes
Reading: higher = stronger binding
Shared flanks, not repeated: GCCTAGCAC … GTCTTGATTCGCTTGACGCTGCTG
Sequence | log fluorescence
ACCTATGTGTACCACTAGACGTGCTAG | 0.161 z-score
TTAGGAATGGGTTTCGGTTAGTGCTAG | 7.16 z-score
TTAAATTTCGGGTATCGATTAGTGCTA | 1.9 z-score
ATTCTTTGCTCATTTTTCAGGGTGCTA | 0.61 z-score
TTAGGACTGGGTTTCGGATAGTGCTAG | 3.17 z-score
GACGGTAACGACTTTCGGGACGTGCTA | -0.122 z-score
GACGGTATCGACACTGGGGAGGTGCTA | -0.257 z-score
GACGGTATCTGGACTGGGGACGTGCTA | -0.144 z-score
CTGGGTATTTTTCTAAACCAGTGCTAG | 0.697 z-score
TTCTGAACCATTTTGGTTTTGTGCTAG | -0.14 z-score
TTAGATCTCTGTATCGATTAGTGCTAG | 0.236 z-score
CATCGTAAGCAAAAATGATTGTGCTAG | -0.247 z-score
GACGGACTGGAAACTGGGGACGTGCTA | -0.062 z-score
TTAGAAATCAGTTTCGATTAGTGCTAG | 8.77 z-score
GACGGACTGCTACTGCTGACGTGCTAG | -0.741 z-score
GACGGTATCGTACTGCTGACGTGCTAG | -0.0116 z-score

Mixed results
Substance | target | assay | test system | setting | scale | measurement | result
PhoQ, residues 284 288 289 292 302 303 GTAMQF | PhoP, residues 12 14 15 18 19 DLLYY (Escherichia coli, UniProt P23836) | Sort-seq, refers to: YFP reporter | E. coli | PhoQ-PhoP variant library, added: 10 µM Mg2+ | baseline: high Mg2+ state, higher = stronger signaling | fold induction | 1.22

Repeated from above (set 4):
Sequence | 7-mer Z-score
GGCAGGC | 0.303
GUGACAG | 0.135
GGGGUGA | 0.303
CACCAAC | -0.128
GGAAGCC | -0.104
UCCACAC | -0.244
AAGUAUA | 0.129
UCGUCAC | -0.421
GGUCUAA | 0.0261
GGUUGCU | -0.0699
AACUGAU | 0.211
AGUCAAG | -0.0736
AGUCAAC | -0.217
UAACCAC | -0.11
GUUCAUC | -0.469
GUCUGUU | -0.483
AGAAAAG | 2.88
